Measurements from different studies.
Lines come from different studies, so protocols differ.
Target: Delta-type opioid receptor (OPRD1, Homo sapiens, UniProt P41143)
Chain of UniProt P41143 (whole entry, looked up): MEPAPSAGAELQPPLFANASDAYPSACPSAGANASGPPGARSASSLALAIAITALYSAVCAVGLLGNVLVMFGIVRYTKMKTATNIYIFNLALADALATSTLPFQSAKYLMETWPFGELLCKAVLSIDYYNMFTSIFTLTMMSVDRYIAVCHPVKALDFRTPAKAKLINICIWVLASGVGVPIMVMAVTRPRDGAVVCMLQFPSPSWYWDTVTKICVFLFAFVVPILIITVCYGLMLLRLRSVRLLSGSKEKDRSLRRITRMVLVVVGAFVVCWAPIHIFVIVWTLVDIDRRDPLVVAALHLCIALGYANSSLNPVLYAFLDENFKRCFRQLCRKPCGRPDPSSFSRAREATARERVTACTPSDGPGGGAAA

SMILES	assay	setting	how to read	endpoint	result
C/C(=N\OCCCN1CCCCC1)c1ccc(C(F)(F)F)cc1	agonist, cAMP	10 µM		activation	-2.45%
Cc1cc(-c2ccc3ccccc3c2)nnc1NCCN1CCN(C)CC1	antagonist	10000 nM	reference: control	activity	0%
O=C(Cc1ccc(Cl)c(Cl)c1)N1CCN[C@@H]2COC[C@H](N3CCCC3)[C@H]21	binding	up to 20 µM, added: [3H]DPDPE		inhibition	≤ 50%
C[C@@H]1COCCN1c1nc(NCc2cccnc2C(F)(F)F)c2cccnc2n1	binding	CEREP panel		IC50	8.93 µM
CCc1nnc(-c2c(OC)cc(-c3cnc4cc(-c5cnn(C)c5)ccn34)cc2OC)o1	specific binding, agonist, radioligand binding	10 µM	reference: control specific binding	inhibition	6%
Cc1sc2c(c1C)C(c1ccc(Cl)cc1)=NC(CC(=O)OC(C)(C)C)c1nnc(C)n1-2 (centres unmarked)	ligand displacement, radioligand	1 µM		inhibition	-6%
Cc1cc(Nc2nc(C[C@@]3(C(=O)O)CCN(Cc4cccc(Cl)c4F)[C@H](C)C3)cc(C)c2F)[nH]n1	inhibitor	10 µM		inhibition	10.1%
CN1CC[C@]23c4c5ccc(O)c4C[C@H]2[C@@H](O)C=C[C@H]3[C@H]1C5	receptor activation, agonist, cell-based			Emax	< 10%
N[C@H](C(=O)N1CCCC1)C1CCN(c2nccc3c(-c4ncc(Cl)cc4Cl)cccc23)CC1	functional response, agonist	10 µM		response	-1%
CN[C@@H]1[C@H](O)[C@H](NC)[C@H]2O[C@]3(O)[C@H](O[C@@H]2[C@H]1O)O[C@H](C)C[C@H]3NC(=O)Cc1cc(Cl)ccn1	ligand displacement, radioligand	10 µM		inhibition	9%
O=C(O)c1ccc(-c2nc(-c3ccccc3Cl)c3sccn23)cc1	binding	10 µM		inhibition	~82%
